Measured values gathered from unrelated publications.
A part holds a random share of what one study measured.

Sample 1
Target: Interferon regulatory factor 7, full length, phosphomimetic (IRF7, Homo sapiens, UniProt Q92985, residues 1-503, S471D/S472D/S475D/S476D/S477D/S483D/S484D/S487D)
Technique: protein-binding microarray
Form: double-stranded DNA, one strand shown
Medium: in vitro
Concentration: 2200 nM top
Notes: 60-bp whole probe
With: salmon DNA 0.4 mg/ml
Reference: random background probes
Direction: higher = stronger binding
All sequences stand within: GCCTAGCAC … GTCTTGATTCGCTTGACGCTGCTG
Construct (chain): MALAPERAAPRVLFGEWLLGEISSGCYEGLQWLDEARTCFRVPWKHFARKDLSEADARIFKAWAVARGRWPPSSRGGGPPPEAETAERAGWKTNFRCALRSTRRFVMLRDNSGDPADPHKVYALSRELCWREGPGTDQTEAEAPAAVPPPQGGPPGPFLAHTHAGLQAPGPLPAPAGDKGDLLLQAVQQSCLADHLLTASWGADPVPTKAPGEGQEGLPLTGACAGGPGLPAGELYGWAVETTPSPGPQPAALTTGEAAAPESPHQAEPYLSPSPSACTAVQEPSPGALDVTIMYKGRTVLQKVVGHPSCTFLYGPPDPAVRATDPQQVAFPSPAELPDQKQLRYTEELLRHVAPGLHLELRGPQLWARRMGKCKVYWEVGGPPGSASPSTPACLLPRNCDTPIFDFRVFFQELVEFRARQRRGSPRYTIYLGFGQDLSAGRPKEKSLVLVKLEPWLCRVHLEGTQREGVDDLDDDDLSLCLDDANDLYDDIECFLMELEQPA
Sequence	fitted relative affinity
TTGGGTATCGGTATCGGTTAGTGCTAG	0.972 z-score
TTAGATACCGGGTATCGATTAGTGCTA	0.515 z-score
GATGGTCTCGGACTGGGGACGTGCTAG	-0.469 z-score
TTAGGATTCGACTTTCGGTTAGTGCTA	6.84 z-score
GACGGTTTCCTACTGCTAACGTGCTAG	1.88 z-score
TTAGATCTCGGGTATCGATTAGTGCTA	0.415 z-score
TTAGGTTACGGGTTTCGGTTAGTGCTA	4.38 z-score
TTAGGTTTCGGTCTCGGTTCGTGCTAG	7.52 z-score
TCAGGAGTCATTCTCAAACTGTGCTAG	-0.205 z-score
TGAGGTTTCCTTTTCCTTTAGTGCTAG	6.09 z-score
ATAGGTATCGACACTGGGTTAGTGCTA	0.1 z-score
GACGGTTTCGGTCTCGTGACGTGCTAG	6.77 z-score
GACGTTTTCGGGTATCGGGACGTGCTA	5.77 z-score
GACGAACTGAGTTTCGAGACGTGCTAG	2.06 z-score
TTAGGTATCGACGATCGGTTAGTGCTA	-0.0356 z-score
TCATGTCAACTTTCTCTGACTGTGCTA	1.06 z-score
TCAAATTAGAATTTAAAACTGTGCTAG	-1.32 z-score
TCAGTTCTCCCTTTCAGACTGTGCTAG	2.75 z-score
GGCAGGCTTGCCAGTTCCCCGTGCTAG	-1.05 z-score
TGAGATTTCCATTATTGCTTGTGCTAG	0.894 z-score
GAGGGTTTCCTTCTCCTGACGTGCTAG	1.34 z-score
TTAGGACTGAGGTATCGGTTAGTGCTA	-0.469 z-score
GACGGTCTCGCACTGGGGACGTGCTAG	-0.3 z-score
TTAGGTTTCGAACTGGGTTAGTGCTAG	2.52 z-score
GACGGACTGGGGTTTCGGGAAGTGCTA	-0.153 z-score

Sample 2
Target: RNA binding protein fox-1 homolog 2, RRM domain, GST-SBP tag (RBFOX2, Homo sapiens, UniProt O43251-10, residues 100-194)
Technique: RNA Bind-n-Seq
Form: RNA
Medium: in vitro
Concentration: 365 nM
Notes: natural RNA segment, single round, ends assumed
Reference: no-protein control
Direction: higher = stronger binding
Construct (chain): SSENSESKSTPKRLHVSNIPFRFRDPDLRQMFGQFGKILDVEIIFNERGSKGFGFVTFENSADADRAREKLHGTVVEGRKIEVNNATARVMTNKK
Sequence	RBNS enrichment (R)
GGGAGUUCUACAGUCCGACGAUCUACCUCCUUCCCAGUGUUGGUGUUCACUCACUAUAUGUCUUUAAGAAAAUUAAAACUAUGGAAAAUUUGUCUAGCAUAUCAGAAGUUGUAAAUGCUAUAUCUGGUAUCCAUGGAAUUCUCGGGUGCCAA	0.615
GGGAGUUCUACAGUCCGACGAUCAAAAUGUCAGUAGUGCUAAUGCAUUUUGCACUAGAACGCUUCGGGAAAAUAUUCAUGCUUGCCAUCUGUUCAUUUCUAAAUUUAUAUUCAUAAAGUUACAGUUUGAUACAUGGAAUUCUCGGGUGCCAA	0.614
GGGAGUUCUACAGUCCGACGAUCACAGCGCAAUGCUGCCACCACCCAGUUUCUUCAUCAGAAGACAAGGGAACGAGAAAACUGCUGUUCGUUUGUAUUUGUGAACUUGGCUGUAAUCUGGUAUGCCAUAGGAUUGGAAUUCUCGGGUGCCAA	0.429
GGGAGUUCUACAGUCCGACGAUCGCUCACGCUGCAGAGUCUCUGUGGCGUACCUGGGGGCAUUCUAAGUCCAGUGACUUUUGAAAUUCAACCUUUUUUUAAAAAAAAAAAAUCUAGGGAGGGCGGGGUGAAGUUGGAAUUCUCGGGUGCCAA	0.471
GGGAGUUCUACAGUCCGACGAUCAGAAGUUCUUUCAGAUCACCAAUAUAAAAUUGUUUCCCAAAUAUAUGUGUUUAUCAAAUUUUGACAGGUUUUGAAUGUUCUGUCUAUACCCUAUUUUUAAGAAGUAGGUAUGGAAUUCUCGGGUGCCAA	1.92
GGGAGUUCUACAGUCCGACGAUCUUUCAACCUUGACUCGUAAAUACUUCCCUCUGCAUGGGGGUGAUCGUAGAGAGAAUCAAGGCUACCAUGUGUUUUCUCAUGAGUCAGAAGAUGGCUCAGGAAGCCACUGUUGGAAUUCUCGGGUGCCAA	0.39
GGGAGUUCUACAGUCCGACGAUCCUUAACAGAUGCAGUCAGCAGUUUCUGGGCACUUCUCUCAGUAGGUGCCUCAUGCUGACUUCUCCAGUAGGGUUUCAGGACAAACUACCAAGGAAUUGCCUCAGCCUCCUUGGAAUUCUCGGGUGCCAA	0.332
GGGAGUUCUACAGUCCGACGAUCAUGUUUUGGAAUUUGAUAGACUUUCGGCAACCAGUUCUACUAAUGCUUCACUCCUGGCUCUGUUCAGGGAGGCUGCCCAGGAGGAAGACUGGCCAUUAUGCAUCCCCUUUUGGAAUUCUCGGGUGCCAA	5.33
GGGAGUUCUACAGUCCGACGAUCGAUUUGGAUAGAGAAUACUAUUUCCAAAGUAGUGUUUAGCUCAUCUAGGGGGAUGUGUUUAUAUAUACAUUUGCAUAUACCCACGGGGGAUUAUGAGCUAAUUUUUUUUAUGGAAUUCUCGGGUGCCAA	0.703
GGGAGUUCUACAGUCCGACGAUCAGUGAUGCUGGAAAAGUCAUAGGACUGGCAAAGCAACUGUUUAAACCCUUUGUAACCGGGGCCUUGCCCCCACCUCCUGUCUUUUCUCCUUGCCUUCCCCACUCCUGUGUUGGAAUUCUCGGGUGCCAA	0.338
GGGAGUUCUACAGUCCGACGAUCCUCAAGAGGAUGGAGCUACUAGCUGCUGUGGUCUGCAGUCCAGGUUAAUGGAACAUUGUACAGUGAAGAGACGACCUGGCAAGUUCUUUGUAGACGUGUUUCAGUGCCUCUGGAAUUCUCGGGUGCCAA	0.476
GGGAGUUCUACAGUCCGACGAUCCUGUCCACGGUUCCUUUGUUCUAGGCUGUGAACCCGUCCUUGUCUCUUCCCCCACUGUGUGUUUAAACCUUAAUGGUUUGGGAUGUGAACGUGUGUUGGCUAGCUGUAAAUGGAAUUCUCGGGUGCCAA	0.493

Sample 3
Target: RING finger protein unkempt homolog, zinc fingers 1-6, GST-SBP tag (UNK, Homo sapiens, UniProt Q9C0B0, residues 30-357)
Technique: RNA Bind-n-Seq
Form: RNA
Medium: in vitro
Concentration: not given
Notes: RNA with constant flanks, human and mouse sites, ends assumed
Reference: input RNA pool
Direction: higher = stronger binding
Target sequence (chain): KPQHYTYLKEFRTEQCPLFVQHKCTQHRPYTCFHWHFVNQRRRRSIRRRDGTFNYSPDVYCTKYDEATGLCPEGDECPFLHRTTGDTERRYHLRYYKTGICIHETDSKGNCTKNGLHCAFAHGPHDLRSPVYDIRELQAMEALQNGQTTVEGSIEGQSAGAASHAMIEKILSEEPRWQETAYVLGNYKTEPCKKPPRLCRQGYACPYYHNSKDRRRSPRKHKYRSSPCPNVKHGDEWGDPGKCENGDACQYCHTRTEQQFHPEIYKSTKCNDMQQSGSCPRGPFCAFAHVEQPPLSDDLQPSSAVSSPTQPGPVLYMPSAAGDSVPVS
Sequence	bound/input enrichment [ratio]
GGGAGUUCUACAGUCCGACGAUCUGUUUUUUUAUAGCUGUUUGUAUAAUAUGUGAGUAUUUUAUAGUAUGUUAGUUUUUAACAUAGUAAGUGCUGUAAAAUAUACUUCUUUUGUAUUCAAUUAAUCCUUUUUAAUUUUUUUUGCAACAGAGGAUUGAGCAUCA	9.08
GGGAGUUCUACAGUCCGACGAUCAUUGUAAAGAAAUUGCCUAUUGUGGAAACACUGGGCUGCUGUAAUGUGAUUUGUUCAGAUAAAACUGGAACCCUGACGAAGAACGAGAUGACUGUUACUCACAUCCUCACUUCCGAUGGCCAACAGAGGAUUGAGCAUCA	0.13
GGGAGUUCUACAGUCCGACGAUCAAAGAGUGGGAAGAGUAUGUGCAGAUCCGGACUCUGGUUGAGAAAAUACGGAAAAAGCAAAAAGGUCUGUCCGUUACUUUUGAUGGAAAAAGAGAAGAUUACUUUCCUGAUCUAAUGAAACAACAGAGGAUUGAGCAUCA	0.135
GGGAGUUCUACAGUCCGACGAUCAAUGGUACUUCAGCAGCACUGCGUGAAACUGGGGUUAUUGAAAAACUGUUAACCUCUUACGGAUUUAUUCAGUGUUCAGAACGUCAAGCUAGACUUUUCUUCCACUGUUCACAGUAUAAUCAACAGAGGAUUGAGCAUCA	0.114
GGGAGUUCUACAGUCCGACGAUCCCUGCCCUCUCCGAGGCCUGCUCAGCUGCCUUCCAGACGGCCCUACCAGCCAGCCCCACCUGGCCACCACGCCCACCGACAGCUCGUGUUCCAGUGGCCCAACUGGUGACGGGGUCCAGGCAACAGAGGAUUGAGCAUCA	0.117
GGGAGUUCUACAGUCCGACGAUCCUAGGCCAAUUCUGCUUCUCCAUCCCAAAGGAAGAAAAUUUGCCUUCCUUUGCCGACCCUUAGCAGGAAAGCAAAAUUAAAGGAAAAGAUAAAAGGACGCAGAGGGAAAGUGACAGCGAGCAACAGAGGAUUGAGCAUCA	0.504
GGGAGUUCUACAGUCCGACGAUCGGAUAUGGUAAAAGAGGCCAAAUGAAACCCUCAGUUGAAUCCUAUUCUGAAGAUGAUGAAAGUAAAUUUUGCAGUUAUGGUCAGUAUCCAGCUGACCUAGCCCAUAAGAUACACAGUGCACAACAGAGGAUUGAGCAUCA	0.0934
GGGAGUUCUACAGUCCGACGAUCCCAACAGGGGAAGCAGCAGCCAAUACCCAGCAGACACUUACUUUCUAUGAACUGGACCUUGGCUUAAAUCAUGUGGUUCGGAAAUACAGUGAACCCUUGGAGGAACAUGGCAACUUCCUUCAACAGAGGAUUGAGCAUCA	0.196
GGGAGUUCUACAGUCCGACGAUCGAAAGAUUUCUCGAAUGCUGGCAGCCAAAACUGUUCUGGCUAUCAGAUACGACGCUUUUGGUGAAGAUUCCAGUUCUGCAAUGGGAAUUGAGAACAGAGCCAAAUUAGAGGCCAGGUUGACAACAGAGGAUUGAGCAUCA	0.196
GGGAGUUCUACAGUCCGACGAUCUAGAGAUGAUAUCAAUUAUUACCUAUUGUUGCACUGACUUAUACGUAGAUCAAUAGGAGAUUUAGAUGCCCUUAUGCUGUGAGUUUGAUGUGAUUUCAUUAGCUGCAUGGUGCUUUCUGACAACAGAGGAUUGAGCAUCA	1.37
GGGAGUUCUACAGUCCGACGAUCGUAGGCAUGCCCGUCAAAGCAGAUGGCAAGGCCUUUUGCAACGUGGGUUUCUUUGAGGAAUUUCCUCUGCAAGAGCCUCAGGCGCCUCUCAAGUUCAACCCAUGUUUUGAGAUGCCUAUGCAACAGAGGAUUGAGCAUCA	0.0975

Sample 4
Target: Histone acetyltransferase KAT6A, winged helix 1, GST fusion (KAT6A, Homo sapiens, UniProt Q92794, residues 1-85)
Technique: protein binding microarray
Form: double-stranded DNA, one strand shown
Medium: in vitro
Concentration: not given
Notes: 8-mer, flanks averaged, mean of 2 arrays, mostly near background
Reference: not given
Direction: higher = stronger binding
Target sequence (chain): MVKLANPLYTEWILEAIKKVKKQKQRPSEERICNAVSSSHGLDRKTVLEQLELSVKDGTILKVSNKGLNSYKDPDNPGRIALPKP
Sequence	E-score
ATACCGTG	0.21
ACTAAGGG	-0.0306
CACGGGGC	0.204
GCATGGGC	-0.0294
GAATTTCC	-0.115
CACTGCAG	-0.184
GCCACACA	-0.202
GAAAGGTA	-0.0841
AGAAGCCC	0.0592
ACACCTCG	0.071
GCGAATCC	0.0581
GGCATGTA	0.0558
CATTTTGC	-0.0832
AAAGCGAC	0.108
CGGACTTA	0.038
TAAATGAA	-0.252
AGGGTGGG	-0.202
GACCTCTA	-0.0872
CGTGCGTA	0.27
TCGCGGCA	0.41
ACCATCGT	-0.115
CTCCCAGC	-0.13

Further values, each from its own experiment
Substance	target	assay	test system	conditions	scale	measurement	value
PhoQ, residues 284 288 289 292 302 303 NSMLDC	PhoP, residues 12 14 15 18 19 DLLYY (Escherichia coli, UniProt P23836)	Sort-seq, measured: YFP reporter	E. coli	PhoQ-PhoP variant library, with: 10 µM Mg2+	reference: high Mg2+ state, higher = stronger signaling	fold induction	1.03

Repeated from above (sample 4):
Sequence	E-score
CACTGCAG	-0.184
CATTTTGC	-0.0832
ACCATCGT	-0.115
TAAATGAA	-0.252
ACTAAGGG	-0.0306
AAAGCGAC	0.108
